# Assay results gathered from unrelated publications.
# Numbered parts are unrelated; each lists some results of a single study.

# Study 1 — method: universal PBM; form: double-stranded DNA, one strand shown; medium: in vitro; tested at: not given; reading: higher = stronger binding
# Target: Sal-like protein 4, full length isoform B (SALL4, Homo sapiens, UniProt Q9UJQ4-2, residues 1-616)
# Setting: 8-mer, flanks averaged, mean of replicates
Sequence,E-score
CACAGCAA,0.0836
AGAGCGTG,-0.136
GCTAATGA,-0.00831
CCGCAGAG,-0.236
GCAGCGCA,-0.227
GAATAAAC,0.276
ACTTCTAG,-0.0716
AACTATTA,0.297
TATCTCAA,0.301
AAATATTC,0.412
GCTCCGAC,-0.219
GACAGCGC,-0.193
CGGATCTC,-0.304
CGTACTGA,0.0867
CCTTGGGC,-0.321
CTCTTCAG,-0.117
GTCCGCGA,-0.166
CCCGGCCG,-0.291
CCTACATA,0.0459
CCTCTGGA,-0.172
CATCGACG,-0.2
CGTTCGCC,-0.13
GTCATAAC,0.25
CTAGTGAC,0.103
CTTAGAAG,-0.00755

# Study 2 — method: protein-binding microarray; form: double-stranded DNA, one strand shown; medium: in vitro; tested at: 250 nM; setting: 60-bp whole probe; together with: salmon DNA 0.4 mg/ml; reference: random background probes; reading: higher = stronger binding; shared flanks, not repeated: GCCTAGCAC … GTCTTGATTCGCTTGACGCTGCTG
# Target: Interferon regulatory factor 7, full length, phosphomimetic (IRF7, Homo sapiens, UniProt Q92985, residues 1-503, S101K/S471D/S472D/S475D/S476D/S477D/S483D/S484D/S487D)
# Sequence of UniProt Q92985 (whole entry, unmodified, looked up): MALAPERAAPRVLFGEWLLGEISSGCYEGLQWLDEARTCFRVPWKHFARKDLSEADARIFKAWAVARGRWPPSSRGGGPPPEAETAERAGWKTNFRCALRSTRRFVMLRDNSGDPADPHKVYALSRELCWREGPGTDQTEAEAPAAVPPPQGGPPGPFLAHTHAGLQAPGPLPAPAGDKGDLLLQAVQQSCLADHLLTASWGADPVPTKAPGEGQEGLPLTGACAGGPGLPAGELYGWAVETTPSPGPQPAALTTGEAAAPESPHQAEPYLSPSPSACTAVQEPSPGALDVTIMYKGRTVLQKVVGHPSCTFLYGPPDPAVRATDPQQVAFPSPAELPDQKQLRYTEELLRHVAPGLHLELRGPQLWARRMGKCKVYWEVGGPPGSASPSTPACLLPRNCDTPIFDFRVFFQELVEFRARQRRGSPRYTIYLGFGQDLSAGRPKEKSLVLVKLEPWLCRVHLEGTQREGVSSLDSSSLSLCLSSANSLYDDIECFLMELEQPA
Sequence,log fluorescence
GACGATATCGGGTTACGAGACGTGCTA,0.22 z-score
TCAACTAGGAGTTTTCAGACTGTGCTA,-0.628 z-score
TTAGATTTCAGCCTGGATTAGTGCTAG,0.017 z-score
GACGGTATCCTCATCCTGACGTGCTAG,0.0547 z-score
GGCGATTTCGGGTTTCGAGACGTGCTA,3.88 z-score
TTAGGTATCCTTTTCCTTTAGTGCTAG,1.57 z-score
GACGCACTGGACTTTCGGGACGTGCTA,-0.296 z-score
TTAGGACTGGACTACCGGTTAGTGCTA,-0.283 z-score
TCAAGGTTGTTTCTAATACTGTGCTAG,-0.138 z-score
GGCGAACTGGGGACTGGAGACGTGCTA,-1.05 z-score
TTATCAATCATTTTAGTTTTGTGCTAG,0.653 z-score
TTTGGTATCGGTTTCGGTTAGTGCTAG,10.9 z-score
TCAATTTTCCAAATGCCACTGTGCTAG,1.31 z-score
TTAGGTTTCGACACTGGGATAGTGCTA,3.88 z-score
GACGGTATCGGTTTCGGGCCGTGCTAG,5.24 z-score
TCAGTTTCTGGTTTATTACTGTGCTAG,5.95 z-score
GACGGACGGGGACTGGGGACGTGCTAG,-0.557 z-score
TGAGGTCTCGGTTTCGGTTAGTGCTAG,10.8 z-score
TTCTCTCTGGCCCTCCTGAGGTGCTAG,0.015 z-score
TTAGGTCTCCGACTGCTTTAGTGCTAG,0.000945 z-score
GACGGTAGCGGTTTCGGGACGTGCTAG,2.55 z-score

# Study 3 — method: RNA Bind-n-Seq; form: RNA; medium: in vitro; tested at: not given; reference: input RNA pool; reading: higher = stronger binding
# Target: RING finger protein unkempt homolog, zinc fingers 1-6, GST-SBP tag (UNK, Homo sapiens, UniProt Q9C0B0, residues 30-357)
# Setting: RNA with constant flanks, human and mouse sites, ends assumed
# Target sequence (chain): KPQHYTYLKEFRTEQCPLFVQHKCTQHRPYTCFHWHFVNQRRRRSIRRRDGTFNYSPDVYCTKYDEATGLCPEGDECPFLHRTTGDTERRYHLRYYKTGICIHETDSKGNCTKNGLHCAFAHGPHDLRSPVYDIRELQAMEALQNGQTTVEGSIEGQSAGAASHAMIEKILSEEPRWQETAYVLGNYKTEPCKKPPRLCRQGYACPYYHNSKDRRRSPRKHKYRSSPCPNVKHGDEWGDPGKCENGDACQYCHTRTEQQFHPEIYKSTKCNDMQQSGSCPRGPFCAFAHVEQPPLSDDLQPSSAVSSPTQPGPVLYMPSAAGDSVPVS
Sequence,bound/input enrichment
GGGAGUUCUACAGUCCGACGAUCGACUCCGCGGGGAGGGCAGUAGAGGACGGUCUGAUGUUACAGGAUUUGGUUUCAGCCAAGCUGAUUUCCGAUUACAUUGUUGUUGAGAUUCCUGACUCUGUUAAUGAUUUACAAGGCACACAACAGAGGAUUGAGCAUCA,0.283 ratio
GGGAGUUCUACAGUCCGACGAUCCGAGUGGAUCAGGGGGCUGCAACAGCUCUCAGAAAGGAGAAUACCAGCAACAUCUUUUAUAGCAAAAAUACUGACUAUCCUGAACUUCAGCAGCAAAACACAGAUUCAAAUUACCAGACCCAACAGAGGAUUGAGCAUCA,0.755 ratio
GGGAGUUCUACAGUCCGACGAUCCCUCUUUUCCAGUCCCAUGUUGAAGAUCUUUACGUAGAAGGGCUUCCUGAAGGGAUUCCUUUUAGAAGGCCGUCGACGUACGGCAUUCCUCGCCUUGAGAGGAUAUUGCUGGCGAAGGAACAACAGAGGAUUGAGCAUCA,0.134 ratio
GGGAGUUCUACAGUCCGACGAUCGAAUAAGGAGCACGAUGCAAGGGCGCUGUGGCCCCCGGGUGAUCUCCCACCACACUUACUGUCUUCCUUUAUCUCUGUGGACUUGUAUAUAUUCUGGAAGGGGAACCACAGUUUCACCAUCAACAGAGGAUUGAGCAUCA,0.217 ratio
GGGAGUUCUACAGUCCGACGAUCCCAGGGGACAACAAACUGAAGACUAAAAUGUAUCUGGCUCUCCAAUCCUUAGAACAGGACCUUUCUAAAAUGGCUAUUAUGUACUGGAAGGCAACCAACGCCGCUCCCUUGGAUAAGAUUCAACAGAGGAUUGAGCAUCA,0.294 ratio
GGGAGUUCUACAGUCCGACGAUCAUUCUGUGGGCCACUCUCCCCAACGUUCUGACACUUCUGCAGUCUGAUCAGUGGCGAUGCUAGAUUAUAAUUUCAAACUGUGAAGAAUAAUGGUCUUGUCAUUUGCUCAAUGUGGGGUUACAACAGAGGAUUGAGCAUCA,0.278 ratio
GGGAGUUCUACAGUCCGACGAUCUUGAAGAAAUCAGCAUUUCUAACUGAAGUGAGCCAAAAGGAAAAUUAUGCUGGGGCAAAGUUUAGUGAUCCACCUUCUCCUAGUGUUCUUCCAAAGCCUCCUAGUCACUGGAUGGGAAGCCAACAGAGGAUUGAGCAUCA,0.29 ratio
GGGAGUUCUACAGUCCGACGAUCAUUCUGACCAUGAUUCCAACUGAAGAGGAGAAGCAGAAAAUCCAGGAGGCUCAGCUGGCUAACCCGGAAGUGCCGUUGGGCAGUGCAGAGCAGUUCCUUCUCACACUCUCUUCCAUCAGUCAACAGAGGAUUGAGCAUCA,0.0749 ratio
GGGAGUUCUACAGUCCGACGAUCCCACACAGAACCAGGGCUGCCCCUGUAAUCCCCACAGUAAGAAAGUUGUAUGGCAUAUUCCAACAAGUAUUGGUUCGUCUGGUGUCUUUAGAGCUUUACUCUGUUGAAGUGACUGAUUCUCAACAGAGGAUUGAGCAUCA,0.332 ratio
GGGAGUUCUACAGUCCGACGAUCCAGUUUGGGAUCCCAUGAAGAGAGGGGCCCUAGGACAGCUCUUCCCUCGUCUUCACCCCGUCUCCACCCCACCUCUUCUGGCCCCCAGCCUCACUGUGGCUCUCUACAGUACCUAACCUGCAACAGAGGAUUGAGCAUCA,0.432 ratio
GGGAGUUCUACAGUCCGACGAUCAGUAAACCUGGCAGCUAUAGAAUACACUAUGUGCAUUUAUAAUAGCUAUUUUAUAUAUUGUAGUGUUCAACAUUUUUAAAUUAAAUGUUUUACAUUCACAAGUGGUGGGGAGUCUUGUCACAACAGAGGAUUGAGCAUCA,0.908 ratio

# Study 4 — method: RNA Bind-n-Seq; form: RNA; medium: in vitro; tested at: 365 nM; reference: no-protein control; reading: higher = stronger binding
# Target: RNA binding protein fox-1 homolog 2, RRM domain, GST-SBP tag (RBFOX2, Homo sapiens, UniProt O43251-10, residues 100-194)
# Setting: natural RNA segment, single round, ends assumed
# Construct (chain): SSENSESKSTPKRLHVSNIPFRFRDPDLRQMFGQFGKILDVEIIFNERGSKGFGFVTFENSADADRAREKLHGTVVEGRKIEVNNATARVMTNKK
Sequence,RBNS enrichment (R)
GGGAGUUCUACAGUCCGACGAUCGCCAAAGGUAAAAUUGAGUUUAUUCUUUUUCAUACAGAAAUGGAUUUUGCUUUUGUUUGCUUUUUAUUUUUGUGUAAAAUCUAAAUUCCAGGAGCUAUGGGGUUCAUCCAUGGAAUUCUCGGGUGCCAA,1.73
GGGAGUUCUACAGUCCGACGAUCUGGGUCAUAGUCAUACCUUCUGAUGAGGUGGAGCCAACACCAGCAAAGUAUGAUGGCCCUGUAGCCUCUGACUAGUCCUGAAACAGAAGGCUGCACUCUAGGCUGAACCAUGGAAUUCUCGGGUGCCAA,0.367
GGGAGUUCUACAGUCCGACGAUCCCAAUCACAAAAGCGGCGUUGGGUCAGGGCUAGGCUUAGAGGUGAAGCAUCAACAUGGAACCAUCUCAGGAAGCCGCAUCGCCUCUUCCGAGGUCCUCACUUCCAGGAGCUGGAAUUCUCGGGUGCCAA,0.522
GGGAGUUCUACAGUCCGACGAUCCCUCUGAGAAUUGGCUGCUGUUUCUAAUAUAAUUAUUUUCUAAGAUAGCCAGAUAGUUAGAAAAAGAUUUUCAUUGAUGACAUAUCUUUAAACUUUCUUGCAUCAGUAUUUGGAAUUCUCGGGUGCCAA,0.419
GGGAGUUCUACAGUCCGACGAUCAAAUCUUGACUUACCCAGUCCCCACCUGUCUCUUCCUGCCUUCUUUAUCUGUAAGAACACAAAUUUGGCAUUACAGUUAAGGGAGUGAUUUGAAUUGAUUGACAAGUCCUUGGAAUUCUCGGGUGCCAA,0.206
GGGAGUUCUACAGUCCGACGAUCAAUAUUUGAUUGCAUAUUUAGUUGUAGUAAGAUUUUAUAAAAUACAUAAUCCUUUGUAUGUGCAGUUUGUAAAGUAUCUGCAGAAUUAAAUGCUCUUAUUUACAGAUCAGUGGAAUUCUCGGGUGCCAA,0.599
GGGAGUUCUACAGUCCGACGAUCUGAUCUAGGUACUAAGAUAUUCACUGUGAACCCGAUCUAUUGCACAAAUGGAGUCCUUUUGUAUUACUCUCUAUGGGAUAGCACAAGAUAGCUCUGUAGGAUAGUCUCAGUGGAAUUCUCGGGUGCCAA,0.329
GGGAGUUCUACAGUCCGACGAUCCCCUCUCGGCUCACAUGUUCACAGUGCAGCUCCUGGCAGACUUGGGUUUUCUCUUUGGUGGUUUCUAAAGUGCCUUAUCUGCAAACAACUUCUUUUCUCCUUCAGGAACUUGGAAUUCUCGGGUGCCAA,0.331
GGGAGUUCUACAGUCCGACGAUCAUAGUGAAAGCUGACCACAGUUGUUCCCAAAUAAAGGUCGGCAGCUCCUACCAGGUCUGGGAUUGAGAUGUUAGAGUCUUCAGUUUUAUAGCCGGCUCCUGAAAGCAGGCUGGAAUUCUCGGGUGCCAA,0.346
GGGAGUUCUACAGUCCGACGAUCCAAGGUGAUGUUAAGGGCAUAGAAGGGGCAUAUUUGUCUUCAGUUGAAUGCCAUUGUGUGCCAGUUGCUCCCCUACCUCUGAUGACAUCUCUGUUCUCCCUGGGAAAGGUUGGAAUUCUCGGGUGCCAA,0.357
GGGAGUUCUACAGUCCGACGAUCUCCCUUGGCAAAUGGACACCAGGGGCUUCUCCCCUCAAAGCCAUACCCCGCCUCUGGGCGGGCAUGGGGGGUGGUGGGUGCCAGCCAGGGGCAUGGACAGAGCCUUUUUCUGGAAUUCUCGGGUGCCAA,0.518
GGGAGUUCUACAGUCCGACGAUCCAUACAUUGUACUGAUCAAGUUAUACACCCAGGGGUAUAUACACUUUCUUCAUGUUUCUUCUUUGUAUAUUUGGUGACUGUAUCGUCAUAGAUGUACAUAUUGUGUCGGUUGGAAUUCUCGGGUGCCAA,0.375

# For quick reference, copied from above (study 1):
Sequence,E-score
GACAGCGC,-0.193
AACTATTA,0.297
CGGATCTC,-0.304
AGAGCGTG,-0.136
CGTTCGCC,-0.13
GTCCGCGA,-0.166
CGTACTGA,0.0867
CTTAGAAG,-0.00755
